Measured values from different studies.
Each numbered part is a random draw from the data of one study; scales do not carry over between parts.
Sequence of UniProt Q02779 (whole entry, looked up): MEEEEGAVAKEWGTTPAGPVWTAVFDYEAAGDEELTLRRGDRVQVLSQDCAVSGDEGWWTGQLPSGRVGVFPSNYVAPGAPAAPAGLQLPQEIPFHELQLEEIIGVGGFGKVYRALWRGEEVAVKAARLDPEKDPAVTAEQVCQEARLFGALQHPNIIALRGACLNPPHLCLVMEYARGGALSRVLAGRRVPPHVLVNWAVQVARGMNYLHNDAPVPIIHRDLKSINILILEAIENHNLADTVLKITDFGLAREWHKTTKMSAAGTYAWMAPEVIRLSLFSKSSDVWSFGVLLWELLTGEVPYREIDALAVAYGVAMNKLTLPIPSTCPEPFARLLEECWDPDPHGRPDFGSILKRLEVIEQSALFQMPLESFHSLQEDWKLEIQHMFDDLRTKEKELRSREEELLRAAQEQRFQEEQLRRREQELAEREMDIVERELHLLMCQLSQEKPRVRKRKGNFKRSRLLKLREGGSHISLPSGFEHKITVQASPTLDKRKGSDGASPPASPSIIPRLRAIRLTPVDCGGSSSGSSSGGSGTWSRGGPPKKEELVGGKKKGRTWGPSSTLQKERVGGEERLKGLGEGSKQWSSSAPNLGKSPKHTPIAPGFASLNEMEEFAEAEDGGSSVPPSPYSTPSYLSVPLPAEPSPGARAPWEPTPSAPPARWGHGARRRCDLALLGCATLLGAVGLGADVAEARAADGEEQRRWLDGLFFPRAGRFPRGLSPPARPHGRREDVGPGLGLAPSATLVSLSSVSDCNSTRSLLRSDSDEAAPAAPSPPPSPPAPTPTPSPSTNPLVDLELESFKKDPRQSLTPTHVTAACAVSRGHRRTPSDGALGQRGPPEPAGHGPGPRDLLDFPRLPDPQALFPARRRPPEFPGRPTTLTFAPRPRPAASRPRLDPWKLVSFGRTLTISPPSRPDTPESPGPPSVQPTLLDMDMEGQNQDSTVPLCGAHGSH
Sequence of UniProt P68400 (whole entry, looked up): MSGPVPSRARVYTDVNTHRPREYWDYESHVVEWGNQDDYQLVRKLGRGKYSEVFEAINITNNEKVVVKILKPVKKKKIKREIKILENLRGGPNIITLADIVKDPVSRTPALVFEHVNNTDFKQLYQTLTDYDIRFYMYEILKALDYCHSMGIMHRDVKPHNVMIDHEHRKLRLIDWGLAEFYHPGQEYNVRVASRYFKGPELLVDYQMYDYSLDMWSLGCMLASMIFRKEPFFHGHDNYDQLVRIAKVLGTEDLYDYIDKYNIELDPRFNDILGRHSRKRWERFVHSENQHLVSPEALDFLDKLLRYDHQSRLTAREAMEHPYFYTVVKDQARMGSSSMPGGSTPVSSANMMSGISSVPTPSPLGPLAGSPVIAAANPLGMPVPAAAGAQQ
Sequence of UniProt P21802 (whole entry, looked up): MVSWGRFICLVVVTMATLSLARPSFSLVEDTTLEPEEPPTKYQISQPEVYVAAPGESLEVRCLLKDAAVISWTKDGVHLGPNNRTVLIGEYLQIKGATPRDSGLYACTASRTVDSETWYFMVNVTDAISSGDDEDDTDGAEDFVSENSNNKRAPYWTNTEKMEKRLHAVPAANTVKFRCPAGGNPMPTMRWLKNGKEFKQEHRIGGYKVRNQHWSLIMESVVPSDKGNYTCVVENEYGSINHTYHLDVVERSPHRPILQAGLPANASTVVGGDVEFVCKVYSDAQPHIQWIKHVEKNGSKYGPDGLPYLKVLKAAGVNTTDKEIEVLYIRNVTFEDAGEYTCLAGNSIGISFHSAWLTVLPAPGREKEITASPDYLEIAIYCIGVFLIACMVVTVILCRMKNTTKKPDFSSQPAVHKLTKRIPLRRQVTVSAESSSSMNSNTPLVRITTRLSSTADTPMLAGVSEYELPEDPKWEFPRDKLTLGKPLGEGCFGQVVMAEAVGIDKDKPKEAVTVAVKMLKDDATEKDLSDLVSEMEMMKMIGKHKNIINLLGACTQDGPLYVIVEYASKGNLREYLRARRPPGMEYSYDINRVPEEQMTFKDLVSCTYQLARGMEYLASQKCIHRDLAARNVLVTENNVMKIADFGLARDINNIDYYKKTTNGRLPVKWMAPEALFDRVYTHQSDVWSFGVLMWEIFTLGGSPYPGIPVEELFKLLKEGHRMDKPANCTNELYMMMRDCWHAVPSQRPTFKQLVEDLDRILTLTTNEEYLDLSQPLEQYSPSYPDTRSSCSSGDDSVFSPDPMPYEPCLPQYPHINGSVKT
Sequence of UniProt Q00532 (whole entry, looked up): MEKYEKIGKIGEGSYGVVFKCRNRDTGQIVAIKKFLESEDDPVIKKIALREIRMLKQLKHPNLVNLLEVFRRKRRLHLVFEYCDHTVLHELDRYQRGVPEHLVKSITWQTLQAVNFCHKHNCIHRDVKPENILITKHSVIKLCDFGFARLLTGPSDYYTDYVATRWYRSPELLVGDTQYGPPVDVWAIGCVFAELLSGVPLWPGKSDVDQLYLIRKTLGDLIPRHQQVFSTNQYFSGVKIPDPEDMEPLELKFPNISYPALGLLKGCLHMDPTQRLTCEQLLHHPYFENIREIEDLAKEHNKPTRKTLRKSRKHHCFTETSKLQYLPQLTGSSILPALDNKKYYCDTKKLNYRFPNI
Sequence of UniProt P53778 (whole entry, looked up): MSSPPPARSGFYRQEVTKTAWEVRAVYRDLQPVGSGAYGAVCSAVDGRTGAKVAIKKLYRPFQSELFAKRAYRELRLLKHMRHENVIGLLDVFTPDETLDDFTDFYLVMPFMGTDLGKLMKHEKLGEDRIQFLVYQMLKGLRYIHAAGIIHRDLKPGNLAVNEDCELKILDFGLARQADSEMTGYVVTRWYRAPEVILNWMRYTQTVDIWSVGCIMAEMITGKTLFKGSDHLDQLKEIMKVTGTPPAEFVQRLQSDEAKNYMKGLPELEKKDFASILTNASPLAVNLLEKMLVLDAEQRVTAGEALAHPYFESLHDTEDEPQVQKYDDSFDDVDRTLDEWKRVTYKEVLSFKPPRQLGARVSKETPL
Sequence of UniProt P51957 (whole entry, looked up): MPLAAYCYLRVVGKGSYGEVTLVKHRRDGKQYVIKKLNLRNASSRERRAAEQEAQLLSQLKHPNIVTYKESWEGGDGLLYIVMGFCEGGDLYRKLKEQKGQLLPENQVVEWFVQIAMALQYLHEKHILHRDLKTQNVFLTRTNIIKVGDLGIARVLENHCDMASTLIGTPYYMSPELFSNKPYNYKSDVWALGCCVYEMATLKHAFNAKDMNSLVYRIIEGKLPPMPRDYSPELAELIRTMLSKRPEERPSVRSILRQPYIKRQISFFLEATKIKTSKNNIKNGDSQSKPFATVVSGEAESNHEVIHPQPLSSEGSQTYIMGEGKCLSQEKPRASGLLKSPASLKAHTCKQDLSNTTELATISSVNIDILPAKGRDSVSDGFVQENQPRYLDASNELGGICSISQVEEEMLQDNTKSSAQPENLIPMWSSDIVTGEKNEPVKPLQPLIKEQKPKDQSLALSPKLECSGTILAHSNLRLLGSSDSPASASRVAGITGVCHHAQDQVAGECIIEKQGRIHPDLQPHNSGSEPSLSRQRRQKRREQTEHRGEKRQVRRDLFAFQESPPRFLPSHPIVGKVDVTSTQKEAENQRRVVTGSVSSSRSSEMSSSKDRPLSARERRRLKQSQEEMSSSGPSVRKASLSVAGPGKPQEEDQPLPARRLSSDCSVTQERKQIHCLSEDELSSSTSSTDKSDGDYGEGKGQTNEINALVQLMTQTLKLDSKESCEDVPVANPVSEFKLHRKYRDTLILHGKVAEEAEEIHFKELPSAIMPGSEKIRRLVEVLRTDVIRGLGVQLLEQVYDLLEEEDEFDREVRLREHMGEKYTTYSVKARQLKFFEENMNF
Sequence of UniProt Q9NWZ3 (whole entry, looked up): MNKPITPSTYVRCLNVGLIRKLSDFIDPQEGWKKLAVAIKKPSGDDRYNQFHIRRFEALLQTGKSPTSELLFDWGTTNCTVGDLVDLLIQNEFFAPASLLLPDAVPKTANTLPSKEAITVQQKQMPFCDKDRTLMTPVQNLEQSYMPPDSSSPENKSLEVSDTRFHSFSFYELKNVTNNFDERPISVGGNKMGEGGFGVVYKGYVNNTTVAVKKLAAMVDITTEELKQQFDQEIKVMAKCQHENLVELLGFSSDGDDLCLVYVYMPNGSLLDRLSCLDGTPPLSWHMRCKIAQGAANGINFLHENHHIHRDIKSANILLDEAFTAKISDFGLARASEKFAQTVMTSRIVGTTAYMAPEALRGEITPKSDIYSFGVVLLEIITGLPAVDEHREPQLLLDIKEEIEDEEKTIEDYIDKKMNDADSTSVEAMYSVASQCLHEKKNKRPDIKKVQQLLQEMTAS
Sequence of UniProt P50750 (whole entry, looked up): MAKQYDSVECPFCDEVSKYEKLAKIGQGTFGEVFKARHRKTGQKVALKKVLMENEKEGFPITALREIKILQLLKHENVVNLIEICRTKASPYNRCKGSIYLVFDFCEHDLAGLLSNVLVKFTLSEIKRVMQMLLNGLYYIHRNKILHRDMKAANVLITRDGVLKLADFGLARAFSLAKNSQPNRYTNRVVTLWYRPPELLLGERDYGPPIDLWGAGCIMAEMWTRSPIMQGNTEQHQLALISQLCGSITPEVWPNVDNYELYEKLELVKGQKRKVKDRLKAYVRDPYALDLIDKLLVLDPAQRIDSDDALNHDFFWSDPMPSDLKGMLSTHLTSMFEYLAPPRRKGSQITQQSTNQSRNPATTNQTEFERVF

Block 1
SMILES: FC(F)(F)c1ccc2c(c1)nc(-c1cccnc1)n2C1CC1
Observed: cell-free assay
Technique: competition with immobilised ligand
Tested at: 1 µM
The remaining binding was 100% (Citron Rho-interacting kinase (CIT, Homo sapiens, UniProt O14578)).
It gave 100% for remaining binding (Dual specificity protein kinase CLK1 (CLK1, Homo sapiens, UniProt P49759)).
It gave 100% for remaining binding (Serine/threonine-protein kinase DCLK3 (DCLK3, Homo sapiens, UniProt Q9C098)).
It gave 91% for remaining binding (Cyclin-dependent kinase-like 1 (CDKL1, Homo sapiens, UniProt Q00532)).
For Tyrosine-protein kinase ABL1, phosphorylated (ABL1, Homo sapiens, UniProt P00519, Q252H): remaining binding read 100%.
It gave 76% for remaining binding (Uncharacterized serine/threonine-protein kinase SBK3 (SBK3, Homo sapiens, UniProt P0C264)).
Tyrosine-protein kinase TXK (TXK, Homo sapiens, UniProt P42681) — remaining binding: 100%.
Epidermal growth factor receptor (EGFR, Homo sapiens, UniProt P00533, del752-759) — remaining binding: 100%.
Fibroblast growth factor receptor 2 (FGFR2, Homo sapiens, UniProt P21802) — remaining binding: 100%.
The remaining binding was 100% (Dual specificity tyrosine-phosphorylation-regulated kinase 1A (DYRK1A, Homo sapiens, UniProt Q13627)).
Phosphatidylinositol 4-phosphate 3-kinase C2 domain-containing subunit beta (PIK3C2B, Homo sapiens, UniProt O00750) — remaining binding: 100%.
Mast/stem cell growth factor receptor Kit (KIT, Homo sapiens, UniProt P10721, L576P) — remaining binding: 100%.
For Ribosomal protein S6 kinase alpha-3, N-terminal kinase domain (RPS6KA3, Homo sapiens, UniProt P51812): remaining binding read 89%.
It gave 100% for remaining binding (Homeodomain-interacting protein kinase 2 (HIPK2, Homo sapiens, UniProt Q9H2X6)).
The remaining binding was 91% (Cyclin-dependent kinase-like 5 (CDKL5, Homo sapiens, UniProt O76039)).
It gave 100% for remaining binding (Serine/threonine-protein kinase Nek11 (NEK11, Homo sapiens, UniProt Q8NG66)).

Block 2
Target: Eukaryotic initiation factor 4A-I (EIF4A1, Homo sapiens, UniProt P60842)
Sequence of UniProt P60842 (whole entry, looked up): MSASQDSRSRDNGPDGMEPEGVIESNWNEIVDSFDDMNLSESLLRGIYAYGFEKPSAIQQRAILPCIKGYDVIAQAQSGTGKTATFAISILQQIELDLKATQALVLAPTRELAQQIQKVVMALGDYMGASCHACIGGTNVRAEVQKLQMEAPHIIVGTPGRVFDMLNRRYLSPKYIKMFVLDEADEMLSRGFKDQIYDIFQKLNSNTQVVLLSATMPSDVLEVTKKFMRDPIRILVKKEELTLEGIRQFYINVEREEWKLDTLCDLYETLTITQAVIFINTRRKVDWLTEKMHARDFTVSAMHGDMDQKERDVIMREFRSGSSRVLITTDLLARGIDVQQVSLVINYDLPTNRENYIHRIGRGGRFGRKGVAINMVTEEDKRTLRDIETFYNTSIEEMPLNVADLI
Observed: RNA clamping
Technique: fluorescence polarization
Tested at: concentration not given
With: FAM-labelled poly r(AG)8 RNA
`COc1ccc([C@@]23Oc4cc(O)cc(OC)c4[C@]2(O)[C@H](O)[C@H](C(=O)N(C)OC)[C@H]3c2ccccc2)cc1` — result for “fluorescence polarization change”: 12 mP.
`C#CCCC1(CCOc2ccc([C@@H]3[C@@H](C(=O)N(C)OC)[C@@H](O)[C@@]4(O)c5c(OC)cc(OC)cc5O[C@@]34c3ccc(OC)cc3)cc2)N=N1` — result for “fluorescence polarization change”: 1.7 mP.
For `COCCN[C@@]12c3nc(-c4ccccc4)[nH]c(=O)c3[C@@H](c3ccccc3)[C@]1(c1ccc(OC)cc1)Oc1cc(OC)cc(OC)c12`, “fluorescence polarization change” read 10.6 mP.
`COCCN[C@@]12C(=O)C[C@@H](c3ccccc3)[C@]1(c1ccc(OC)cc1)Oc1cc(OC)cc(OC)c12`: “fluorescence polarization change” -13.3 mP.
Under “fluorescence polarization change”, `COc1ccc([C@@]23Oc4cc(O)cc(OC)c4[C@]2(O)c2nc4n(c(=O)c2[C@H]3c2ccccc2)CCC4)cc1` is recorded as 40.7 mP.
`C#CCOc1cc(OC)c2c(c1)O[C@@]1(c3ccc(OC)cc3)[C@H](c3ccccc3)c3c(nc4n(c3=O)CCC4)[C@@]21O`: “fluorescence polarization change” 20.4 mP.
Under “fluorescence polarization change”, `O=C1C[C@@H](c2ccccc2)[C@]2(c3ccc(Br)cc3)Oc3cc(F)cc(F)c3[C@]12O` is recorded as 13.7 mP.
For `COc1ccc([C@]23Oc4cc(OC)cc(OC)c4[C@](O)([C@H]2O)[C@@H](C(=O)N(C)OC)[C@@H]3c2ccccc2)cc1`, “fluorescence polarization change” read 11.4 mP.
`COCCOCOC(=C(F)F)c1ccc([C@@H]2[C@@H](C(=O)N(C)OC)[C@@H](O)[C@@]3(O)c4c(OC)cc(OC)cc4O[C@@]23c2ccc(OC)cc2)cc1`: “fluorescence polarization change” -13.8 mP.

Block 3
Structure (SMILES): COc1cc(Nc2c(C#N)cnc3cc(OCCCN4CCN(C)CC4)c(OC)cc23)c(Cl)cc1Cl
Observed: enzyme activity
Action: inhibitor
Tested at: 0.5 µM
Reference: control
It gave 32.6% for remaining activity (Serine/threonine-protein kinase Nek4 (NEK4, Homo sapiens, UniProt P51957)).
The remaining activity was 63.2% (Interleukin-1 receptor-associated kinase 4 (IRAK4, Homo sapiens, UniProt Q9NWZ3)).
It gave 30.1% for remaining activity (Leucine-rich repeat serine/threonine-protein kinase 2 (LRRK2, Homo sapiens, UniProt Q5S007)).
It gave 99.4% for remaining activity (Protein kinase C iota type (PRKCI, Homo sapiens, UniProt P41743)).
For Mitogen-activated protein kinase 12 (MAPK12, Homo sapiens, UniProt P53778): remaining activity read 99.9%.
It gave 22.9% for remaining activity (Mitogen-activated protein kinase kinase kinase 10 (MAP3K10, Homo sapiens, UniProt Q02779)).
For Protein kinase C delta type (PRKCD, Homo sapiens, UniProt Q05655): remaining activity read 40.3%.
Casein kinase II subunit alpha (CSNK2A1, Homo sapiens, UniProt P68400) — remaining activity: 116%.
The remaining activity was 37.1% (Ephrin type-A receptor 5 (EPHA5, Homo sapiens, UniProt P54756)).
It gave 49.5% for remaining activity (Casein kinase I isoform alpha (CSNK1A1, Homo sapiens, UniProt P48729)).
Serine/threonine-protein kinase 38 (STK38, Homo sapiens, UniProt Q15208) — remaining activity: 85.1%.
It gave 85.5% for remaining activity (cGMP-dependent protein kinase 1 (PRKG1, Homo sapiens, UniProt Q13976)).
It gave 87% for remaining activity (Cyclin-dependent kinase 9, with cyclin T1 (CDK9, Homo sapiens, UniProt P50750)).
It gave 38.9% for remaining activity (Serine/threonine-protein kinase Chk1 (CHEK1, Homo sapiens, UniProt O14757)).
Tyrosine-protein kinase Lyn (LYN, Homo sapiens, UniProt P07948) — remaining activity: 2.13%.
The remaining activity was 5.69% (Tyrosine-protein kinase BTK (BTK, Homo sapiens, UniProt Q06187)).
It gave 91.2% for remaining activity (Mitogen-activated protein kinase 13 (MAPK13, Homo sapiens, UniProt O15264)).
Dual specificity mitogen-activated protein kinase kinase 6 (MAP2K6, Homo sapiens, UniProt P52564) — remaining activity: 93.4%.
For MAP kinase-interacting serine/threonine-protein kinase 2 (MKNK2, Homo sapiens, UniProt Q9HBH9): remaining activity read 98.7%.

Block 4
Species: mouse
Medium: microsomes or S9
Tested at: 2 µM
Time: 0.5 h
With `Cn1nc2n(c1=O)CCN(C(=O)CCn1cnnn1)CC2` the remaining compound was over 99%.
`CC1CN(C(=O)C2CCC2)C(C)CN1C(=O)C1CCC1` (stereo not shown) has a remaining compound of 0.193%.
For `Cc1cc(C)n(Cc2nnc(Nc3ccccc3)o2)n1`, the remaining compound was 2.21%.
`CC(C)Nc1ncc2scc(COc3cccc4ncccc34)c2n1` gave a remaining compound of 3.24%.
For `COCCN(C(C)=O)c1nc(C)c(C(=O)Nc2nnc(C(C)C)s2)s1`, the remaining compound was 88.3%.
For `CCOc1ccc(OCC)c(NC(=O)c2cc3c(Cl)ccc4c3n2CCO4)c1`, the remaining compound was 55.1%.
For `CCC(CC)(CC)NC(=O)C1CCN(S(=O)(=O)CC)CC1`, the remaining compound was 4.68%.
`O=C1c2ccccc2C2CC(c3ccc(-c4ccccc4)cc3)=NN12` (stereo not shown) gave a remaining compound of 39.8%.
With `CCc1cccc(C)c1/N=C1/N=C(N2CCOCC2)N(c2ccc(C)cc2)C12CCCCC2` the remaining compound was 73.7%.
With `COC(=O)CC(c1cc2ccccc2[nH]c1=O)c1c(Cc2ccccc2)[nH][nH]c1=O` (stereo not shown) the remaining compound was 69.8%.
The remaining compound of `Cc1n[nH]c(NC(=O)CCc2ncc(C(C)(C)C)o2)c1Cl` is reported as 9.96%.
With `CC1c2cc3c(cc2C2(CCCC2)CN1C(=O)c1ccncn1)OCCO3` (stereo not shown) the remaining compound was 0.0263%.
`COc1ccc(C2=NOC(c3ccc(-c4nnn[nH]4)cc3)C2)cc1` (stereo not shown) has a remaining compound of 72.5%.
With `COc1ccc2[nH]cc(CCN3C(=O)c4[nH]nc(-c5ccco5)c4C3c3cccc(O)c3)c2c1` (stereo not shown) the remaining compound was 3.08%.

Some of these lines once more (block 1):
Phosphatidylinositol 4-phosphate 3-kinase C2 domain-containing subunit beta (PIK3C2B, Homo sapiens, UniProt O00750) — remaining binding: 100%.
Mast/stem cell growth factor receptor Kit (KIT, Homo sapiens, UniProt P10721, L576P) — remaining binding: 100%.
For Ribosomal protein S6 kinase alpha-3, N-terminal kinase domain (RPS6KA3, Homo sapiens, UniProt P51812): remaining binding read 89%.
It gave 100% for remaining binding (Homeodomain-interacting protein kinase 2 (HIPK2, Homo sapiens, UniProt Q9H2X6)).
The remaining binding was 91% (Cyclin-dependent kinase-like 5 (CDKL5, Homo sapiens, UniProt O76039)).
It gave 100% for remaining binding (Serine/threonine-protein kinase Nek11 (NEK11, Homo sapiens, UniProt Q8NG66)).
